Results gathered from unrelated publications.
Compare with care: the assays were run in different laboratories. ± gives the spread as reported.
Sequence of UniProt Q03431 (whole entry, looked up): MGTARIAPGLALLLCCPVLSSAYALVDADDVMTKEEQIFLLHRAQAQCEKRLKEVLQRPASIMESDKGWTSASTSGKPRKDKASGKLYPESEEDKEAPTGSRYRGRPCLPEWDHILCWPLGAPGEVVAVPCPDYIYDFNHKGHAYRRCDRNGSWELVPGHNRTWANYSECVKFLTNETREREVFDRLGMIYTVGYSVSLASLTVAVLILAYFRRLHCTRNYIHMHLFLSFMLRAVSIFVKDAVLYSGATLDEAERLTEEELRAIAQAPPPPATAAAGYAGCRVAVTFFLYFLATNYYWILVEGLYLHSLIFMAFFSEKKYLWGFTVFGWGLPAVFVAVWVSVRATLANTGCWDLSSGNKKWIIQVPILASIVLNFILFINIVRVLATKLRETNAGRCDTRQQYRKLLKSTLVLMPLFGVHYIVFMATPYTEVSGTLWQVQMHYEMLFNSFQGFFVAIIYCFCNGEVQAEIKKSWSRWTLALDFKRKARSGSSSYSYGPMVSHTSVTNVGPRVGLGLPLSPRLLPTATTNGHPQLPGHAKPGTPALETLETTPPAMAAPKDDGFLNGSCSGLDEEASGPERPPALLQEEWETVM
Sequence of UniProt Q63449 (whole entry, looked up): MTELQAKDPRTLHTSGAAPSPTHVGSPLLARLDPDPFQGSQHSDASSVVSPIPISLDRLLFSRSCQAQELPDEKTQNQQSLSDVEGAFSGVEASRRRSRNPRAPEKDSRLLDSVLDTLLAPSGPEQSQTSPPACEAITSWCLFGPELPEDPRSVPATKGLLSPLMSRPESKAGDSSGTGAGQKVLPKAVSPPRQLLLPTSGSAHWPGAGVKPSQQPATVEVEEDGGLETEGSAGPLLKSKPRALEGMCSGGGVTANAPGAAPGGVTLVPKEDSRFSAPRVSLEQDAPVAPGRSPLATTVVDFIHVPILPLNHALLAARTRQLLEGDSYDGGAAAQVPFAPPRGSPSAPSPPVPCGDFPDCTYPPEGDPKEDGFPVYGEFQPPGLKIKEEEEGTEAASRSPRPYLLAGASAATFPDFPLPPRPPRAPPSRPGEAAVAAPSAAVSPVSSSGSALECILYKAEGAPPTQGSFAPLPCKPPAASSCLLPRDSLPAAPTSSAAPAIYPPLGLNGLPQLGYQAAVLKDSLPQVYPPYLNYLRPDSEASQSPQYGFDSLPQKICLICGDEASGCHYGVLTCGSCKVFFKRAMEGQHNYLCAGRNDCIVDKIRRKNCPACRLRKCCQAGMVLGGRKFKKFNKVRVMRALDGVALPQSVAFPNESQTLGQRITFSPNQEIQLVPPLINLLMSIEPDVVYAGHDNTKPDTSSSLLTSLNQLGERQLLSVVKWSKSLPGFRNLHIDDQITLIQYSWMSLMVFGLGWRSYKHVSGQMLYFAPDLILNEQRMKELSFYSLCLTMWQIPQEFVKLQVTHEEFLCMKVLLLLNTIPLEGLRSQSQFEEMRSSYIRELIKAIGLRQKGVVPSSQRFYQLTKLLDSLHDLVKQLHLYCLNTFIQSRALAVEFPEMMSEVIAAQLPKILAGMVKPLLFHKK
Sequence of UniProt P50391 (whole entry, looked up): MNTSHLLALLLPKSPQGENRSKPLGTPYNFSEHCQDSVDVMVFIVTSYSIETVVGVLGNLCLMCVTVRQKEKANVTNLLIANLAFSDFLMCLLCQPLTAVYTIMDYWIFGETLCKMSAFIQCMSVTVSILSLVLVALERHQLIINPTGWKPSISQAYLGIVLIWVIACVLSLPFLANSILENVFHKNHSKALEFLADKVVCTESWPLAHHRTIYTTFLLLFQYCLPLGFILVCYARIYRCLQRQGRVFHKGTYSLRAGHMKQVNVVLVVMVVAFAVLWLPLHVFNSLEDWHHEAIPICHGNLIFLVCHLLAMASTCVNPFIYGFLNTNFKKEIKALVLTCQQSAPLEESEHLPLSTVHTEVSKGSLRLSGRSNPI

SMILES | target | assay | system | setting | how to read | quantity | result
CC(C)C[C@H](NC(=O)[C@H](C)NC(=O)[C@H](CCCCN)NC(=O)[C@H](CO)NC(=O)[C@H](Cc1ccccc1)NC(=O)[C@H](C)NC(=O)[C@H](Cc1ccccc1)NC(=O)[C@H](CCC(N)=O)NC(=O)CNC(=O)[C@@H]1CCCN1C(=O)[C@H](Cc1ccccc1)NC(=O)[C@@H](N)Cc1ccc(O)cc1)C(=O)N1CCC[C@H]1C(=O)N[C@@H](CCCNC(=N)N)C(=O)N[C@@H](CO)C(=O)O | CMKLR1 (Homo sapiens, UniProt Q99788) | – | L1.2 transfected with CMKLR1 | 100 nM, with: carboxypeptidase N or B 30 nM | – | chemotaxis | no effect
CC(=O)NCCN(CC(=O)NCCN(CC(=O)NCCN(CC(=O)NCCC(N)=O)C(=O)[C@@H](N)CCCNC(=N)N)C(=O)[C@@H](N)Cc1ccccc1)C(=O)[C@@H](N)Cc1ccccc1 | HIV-1 TAR RNA | – | – | extrapolated to 1 M KCl | – | non-electrostatic ΔG° | -8.054 ± 0.0717 kcal/mol
CCN(CCCC[C@H](NC(=O)[C@H](Cc1ccc(OC)c(OC)c1)NC(=O)[C@H](C)NC(=O)[C@H](CC1CCCCC1)NC(=O)c1ccc(Br)c(N)c1)C(=O)N[C@@H](CO)C(=O)OC)C(C)C | M-phase phosphoprotein 8, chromodomain (Homo sapiens, UniProt Q99549) | isothermal titration calorimetry | – | concentration not given | – | binding | no binding
[3H]C([3H])([3H])c1cnccc1CN1C[C@@H](c2cc(F)c(F)c(F)c2)CC1=O | SV2A (Homo sapiens, UniProt Q7L0J3) | radioligand binding | human Alzheimer disease, frontal cortex | – | baseline: P1 over P2 fraction | specific binding ratio | ~3.7 fold
CC(C)C[C@H](NC(=O)[C@H](CCCNC(=N)N)NC(=O)[C@H](Cc1ccc(O)cc1)NC(=O)CCCCCCC(=O)N[C@@H](Cc1ccc(O)cc1)C(=O)N[C@@H](CCCNC(=N)N)C(=O)N[C@@H](CC(C)C)C(=O)NN(CCCNC(=N)N)C(=O)N[C@@H](Cc1ccc(O)cc1)C(N)=O)C(=O)NN(CCCNC(=N)N)C(=O)N[C@@H](Cc1ccc(O)cc1)C(N)=O | NPY4R (Homo sapiens, UniProt P50391) | β-arrestin-1 recruitment, agonist | HEK293T | concentration not given, unit not given | baseline: 1 µM human pancreatic polypeptide | intrinsic activity | 0.09
C[C@]12C[C@H](c3ccc(S(C)(=N)=O)cc3)C3=C4CCC(=O)C=C4CC[C@H]3[C@@H]1CC[C@@]2(O)C(F)(F)C(F)(F)F (some centres unmarked) | Progesterone receptor (Rattus norvegicus, UniProt Q63449) | pregnancy termination | rat, early pregnancy | oral | – | fully effective dose | ~0.5 mg/kg
CSCC[C@H](NC(=O)[C@H](CC(C)C)NC(=O)[C@H](CCC(N)=O)NC(=O)[C@H](Cc1c[nH]cn1)NC(=O)[C@H](CCC(=O)O)NC(=O)[C@H](CO)NC(=O)[C@@H](NC(=O)[C@@H](N)CO)C(C)C)C(=O)N[C@@H](Cc1c[nH]cn1)C(=O)N[C@@H](CC(N)=O)C(=O)N[C@@H](CC(C)C)C(=O)NCC(=O)N[C@@H](CCCCN)C(=O)N[C@@H](Cc1c[nH]cn1)C(=O)N[C@@H](CC(C)C)C(=O)N[C@@H](CC(N)=O)C(=O)N[C@@H](CO)C(=O)N[C@@H](CCSC)C(=O)N[C@@H](CCC(=O)O)C(=O)N[C@@H](CCCNC(=N)N)C(=O)N[C@H](C(=O)N[C@@H](CCC(=O)O)C(=O)N[C@@H](Cc1c[nH]c2ccccc12)C(=O)N[C@@H](CC(C)C)C(=O)N[C@@H](CCCNC(=N)N)C(=O)N[C@@H](CCCCN)C(=O)N[C@@H](CCCCN)C(=O)N[C@@H](CC(C)C)C(=O)N[C@@H](CCC(N)=O)C(=O)N[C@@H](CC(=O)O)C(=O)N[C@H](C(=O)N[C@@H](Cc1c[nH]cn1)C(=O)N[C@@H](CC(N)=O)C(=O)N[C@@H](Cc1ccccc1)C(=O)N[C@@H](CCCCNC(=O)c1ccc2c(c1)C1(OC2=O)c2ccc(N(C)C)cc2Oc2cc(N(C)C)ccc21)C(N)=O)C(C)C)C(C)C | PTH1R (Homo sapiens, UniProt Q03431) | binding, NanoBRET | – | pH 6.5, MES buffer | – | koff | 0.071 ± 0.04 s⁻¹
CCOc1ccccc1-c1nnc2n1N=C(c1ccc(O)cc1)CS2 | CXCR4 (Homo sapiens, UniProt P61073) | β-arrestin recruitment, agonist | U2OS | – | – | Emax | 96%
NC(=O)C1CCNC(=O)C(CCCNC(=O)c2cnccn2)NC(=O)C(Cc2ccco2)NC(=O)C(CC2CC2)NC(=O)C=CC(=O)N1 (centres unmarked) | AKT3 (Homo sapiens, UniProt Q9Y243) | DNA-templated library selection | – | one selection round | – | enrichment factor | 2.2
O=P(O)(O)O[C@@H]1[C@@H](O)[C@H](O)[C@H](O)[C@H](O)[C@H]1OP(=O)(O)O | Inositol 1,4,5-trisphosphate-gated calcium channel ITPR1, N-terminal region (Itpr1, Rattus norvegicus, UniProt P29994, del318-332) | [3H]IP3 competition binding | N-terminal fragment | cytosol-like medium | – | Hill coefficient | 0.8 ± 0.1
Nc1cccc2cn[nH]c12 | Genome polyprotein, NS3 protease (Hepatitis C virus genotype 1b, UniProt P26663) | protease activity, inhibitor | – | – | – | IC50 | inactive
